{"data": "Assay results pooled from the literature", "target": "Calcium/calmodulin-dependent protein kinase type IV (CAMK4, Homo sapiens, UniProt Q16566)", "note": "Each line is one published result; not all experiments were run side by side. Several values in a cell are separate wells, animals, samples, runs or records."}
{"Compound": "O=C(Cc1ccc(OCc2ccccc2)cc1)NC1(C(=O)O)CCN(C(=O)c2ccc(-c3cccc(Cl)c3)cc2)CC1", "test": "enzyme activity, inhibitor", "conditions": "10 µM", "measurement": "activity vs control", "value": "120%"}
{"Compound": "COc1c(Cl)cccc1Nc1c(-c2ccncc2C#C[C@@]2(C)CCCN2C(=O)/C=C/CN(C)C)[nH]c2c1C(=O)NCC2", "test": "binding, competition with immobilised ligand", "conditions": "3 µM", "measurement": "remaining binding", "value": "98%"}
{"Compound": "COCC12C(=O)NC3C4(C(OC)CC1O)C1CC5(O)C(OC)C(O)C(OC(C)=O)(C1C5OC(=O)c1ccccc1)C3(O)C(OC)C24 (stereo not shown)", "test": "kinase activity, inhibitor, ProQinase kinase profiling", "conditions": "25 µM", "how to read": "reference: control", "measurement": "remaining activity", "value": "108% and 105%"}
{"Compound": "Cc1cccc(O[C@H]2CCC[C@@H](C(C)CNCc3ccncc3)C2)c1 (relative stereo)", "test": "enzyme activity, inhibitor", "conditions": "1 µM", "measurement": "inhibition", "value": "0%"}
{"Compound": "C=CC(=O)Nc1cccc(-c2cnc3[nH]cc(C(=O)NC(C)(C)C)c3n2)c1", "test": "kinase activity", "conditions": "0.1 µM", "measurement": "inhibition", "value": "2% and 0%"}
{"Compound": "COc1cc(Nc2nccc(-c3cnn4nc(OC)ccc34)n2)cc(C(F)(F)F)c1", "test": "binding, competition with immobilised ligand", "conditions": "1 µM", "measurement": "remaining binding", "value": "100%"}
{"Compound": "CN1CC[C@@H](COc2cnc(C#N)cc2-c2ccn3nc(NC(=O)C4CC4)cc3c2)C1", "test": "enzyme activity, inhibitor", "conditions": "1 µM", "measurement": "inhibition", "value": "-4%"}
{"Compound": "CNC(=O)C[C@H](Cc1ccc(C#N)cc1)NC(=O)c1cc(-c2ccc(CN[C@H](C)c3ccc(C)cc3)o2)ccc1Cl", "test": "enzyme activity, inhibitor", "conditions": "1 µM", "measurement": "activity vs control", "value": "112%"}
{"Compound": "COc1c(OCCCN2CCOCC2)ccc2c1N=C(NC(=O)c1cnc(N)nc1)N1CCN=C21", "test": "kinase activity, inhibitor", "conditions": "1 µM", "how to read": "reference: untreated control", "measurement": "remaining activity", "value": "105%"}
{"Compound": "NC(=O)[C@@H](O)C[C@H]1CCc2sc3ncnc(O[C@H]4CC[C@H](N5CCOCC5)CC4)c3c21", "test": "enzyme activity, inhibitor", "conditions": "10 µM", "measurement": "inhibition", "value": "0%"}
{"Compound": "CNC1C[S+]2CC[S+]3CC[S+](C1)[Ru-4]321([N]=C=S)[n]2c3ccc(OC)cc3c3c4c(c5cc(F)c[n+]1c5c32)C(=O)NC4=O (stereo not shown)", "test": "KinomeScan", "conditions": "0.1 µM", "how to read": "reference: untreated", "measurement": "remaining binding", "value": "15%"}
{"Compound": "Nc1ncc2c(n1)-c1c([nH]c3ccc(C4=CCOCC4)cc13)CCC2", "test": "binding, competition with immobilised ligand", "conditions": "1 µM", "measurement": "remaining binding", "value": "100%"}
{"Compound": "CC(C)=CC1OC(C)(C)C2C=C3C(=O)C(Cl)=CC(O)C3C3C(O)C4OC4C(=O)C132 (stereo not shown)", "test": "cell-free assay, competition with immobilised ligand", "conditions": "10 µM", "measurement": "remaining binding", "value": "99%"}
{"Compound": "Cc1ccc(-c2c(/C=C(\\C#N)C(=O)NC(C)C)n(CCCO)c3ncnc(N)c23)cc1", "test": "cell-free assay, competition with immobilised ligand", "conditions": "1 µM", "measurement": "remaining binding", "value": "100%"}
{"Compound": "CNC(=O)C1CCN(c2cc(C)c(F)cc2NC(=O)c2ccc(-c3cc(O)ccc3C)c(C)c2)CC1", "test": "binding, competition with immobilised ligand", "conditions": "1 µM", "measurement": "remaining binding", "value": "100%"}
{"Compound": "C=CC(=O)N1Cc2nc(-c3cc(-c4cc(Cl)cnc4Cl)c(F)cc3F)n(-c3ccncn3)c2C1", "test": "cell-free assay, inhibitor", "conditions": "1 µM", "measurement": "inhibition", "value": "0.7%"}
